Measurements gathered from unrelated publications.
Parts stem from different laboratories: compare values within a part only. Substitutions count along the parent as printed.

Study 1
Target: RNA binding protein fox-1 homolog 2, RRM domain, GST-SBP tag (RBFOX2, Homo sapiens, UniProt O43251-10, residues 100-194)
Technique: RNA Bind-n-Seq
Form: RNA
Medium: in vitro
Tested at: 365 nM
Notes: natural RNA segment, single round, ends assumed
Relative to: no-protein control
Reading: higher = stronger binding
Residues (chain): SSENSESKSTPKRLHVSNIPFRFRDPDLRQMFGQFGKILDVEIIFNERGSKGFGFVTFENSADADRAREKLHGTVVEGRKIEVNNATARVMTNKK
| Sequence | RBNS enrichment (R) |
| --- | --- |
| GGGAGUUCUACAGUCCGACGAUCCCUGAUAGGGGAGGCAGACGGCCUAGACAGUCUCAUUCUGCCUAUCUUCCACAAGCCUGCCUGCCUGCCUCUCUCUUGCUGCUUCUCCAGCCGUUAACCACAUCUGCCACUGGAAUUCUCGGGUGCCAA | 2.62 |
| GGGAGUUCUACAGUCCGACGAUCCGUGGCCUUGUCUAGACCCAGUCCUGAGCAGAGGAGCCUGGUGCCCUCCCAGUCCACAGGGUCUUCCCACUGCCCCUCCUCUGCCACUGCCACAGAGCAGCUUCCCACCUUGGAAUUCUCGGGUGCCAA | 0.223 |
| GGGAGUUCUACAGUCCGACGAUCUGAGAUGGGUUAGGGCAAGUCUUUGCCAUCCCCCAGAUGGCUCUGUCUUCUUGUGUAUGGCAGGGCUGGGACUGCUGUCCCUUGUACAGUUUUCUGUCACUGGUGGGCACUGGAAUUCUCGGGUGCCAA | 0.226 |
| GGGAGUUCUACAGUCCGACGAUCGCACCCCCAGAAUGACCUGGCCGCAGUGAGGCGGAUUGAGAAGGAGCUCCCAGGAGGGGCUUCUGGGCAGACUCUGGUCAAGAAGCAUCGUGUCUGGCGUUGUGGGGAUGUGGAAUUCUCGGGUGCCAA | 0.903 |
| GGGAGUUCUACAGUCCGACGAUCUUCCUGGAGCCAUUUGGUAUGAGGUAUUAAUUUAGCUUAACUAAAUUACAGGGGACUCAGAGGCCGUGCUCCUGACCGAUCCAGACACUAUUACUGGCUUUUUUUUUUUUUGGAAUUCUCGGGUGCCAA | 0.545 |
| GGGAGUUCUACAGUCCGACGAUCAAACGCAACUCAAAUCUGUGCUGGACUUUAAAAAAACAAUUCAGGACCAAAUUUUUUCUCAGUGUGUGUGUUUAUUCCUUAUAGGUGUAAAUGAGAAGACGUGUUUUUUUUGGAAUUCUCGGGUGCCAA | 4.09 |
| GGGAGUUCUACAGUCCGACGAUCCAAUGAUGUCAACACCCCAAGAAGAUCUACCCAACUAUAUCAAGUUCAGAGAUGGCAAUGGAUGAUGGGAAGAUAAGCUCAGAAGGGAAAGGAACCCCUUUGAGAGGUCGUGGAAUUCUCGGGUGCCAA | 0.369 |
| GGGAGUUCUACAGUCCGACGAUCGGACGUGGGGCAGCCACCCCUGCCCAGCGAGAGCGCAGACACCGUGUGAGGGGACAGCAGCCCUUGGUGCAAAGCCAGAGACUGAUCCUGGCUCUGACGGCUGAAGAGGGUGGAAUUCUCGGGUGCCAA | 0.3 |
| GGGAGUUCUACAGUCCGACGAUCAGAUGAAAAAGGAGAGACAUGGAAAGGGAGACAGCCAGGUGGCACCUGCAGCGGCUGCCCUCUGGGGCCACUUGGUAGUGUCCCCAGCCUACCUCUCCACAAGGGGAUUUUGGAAUUCUCGGGUGCCAA | 0.306 |
| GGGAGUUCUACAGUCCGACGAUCAUAUUUGAAUUUCUUUGGGAAGAAAGUAAAUCUGAUGGCUCACUGAUUUUUGAAAAGCCUGAAUAAAAUUGGAAAGACUGGAAAGUUAGGAGAACUGACUAGCUAAACUGUGGAAUUCUCGGGUGCCAA | 0.59 |
| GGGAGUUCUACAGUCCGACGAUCGCUGCUUCUGUGUGUCAAGGCUUCAACCAGGUCCCUCUUCCUCUGACUCUGGCACCAUGCCAGCUGACUGCUACCCAGGUCAGAUUGGACUCAUGGUCAAUACCCAGCCAUGGAAUUCUCGGGUGCCAA | 0.355 |
| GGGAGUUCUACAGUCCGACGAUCAAUCUCUGCAAUCUGUGUCAUGGACUGUACUAUUGUAAGGUCUAUAUUCUGUAUGUGGGUCCCAGACCCUGAUCAGGAAAUGAGCCUCAUGUGUGUCGUUAACAUUUAUAUGGAAUUCUCGGGUGCCAA | 0.49 |

Study 2
Target: CCNF, cyclin fold, Cln2 fusion (human)
Technique: yeast growth competition, sequencing
Medium: yeast
Notes: strong parent motif
Relative to: not given
Reading: higher = stronger binding
Starting sequence: INSM1 docking peptide (human); PKAIRKLHFEDEV
| Substitution | normalised enrichment score |
| --- | --- |
| PKAIRKLHFLDEV [E10L] | 7.29 |
| PTAIRKLHFEDEV [K2T] | 7.46 |
| PKAIDKLHFEDEV [R5D] | -0.26 |
| PRAIRKLHFEDEV [K2R] | 7.85 |
| PKAIRKLPFEDEV [H8P] | 2.82 |
| PIAIRKLHFEDEV [K2I] | 6.8 |
| PKAIRKLHFEDSV [E12S] | 7.93 |
| PKAIRKLHFFDEV [E10F] | 7.8 |
| PKAIRKLGFEDEV [H8G] | 4.93 |
| PKAIRKLRFEDEV [H8R] | 7.56 |
| PYAIRKLHFEDEV [K2Y] | 7.28 |
| PKAIRKLHFEREV [D11R] | 7.17 |
| PKAIRKLHFEDMV [E12M] | 8.42 |
| PKAIRKLYFEDEV [H8Y] | 7.96 |
| PKAIVKLHFEDEV [R5V] | 0.876 |
| PKAIRKLHFWDEV [E10W] | 7.75 |

Study 3
Target: ABI1, truncated, D143A, DHFR fusion (Arabidopsis thaliana)
Technique: DHFR PCA, deep sequencing
Medium: yeast
Notes: methotrexate growth selection, single substitutions
With: (+)-ABA 17 µM
Relative to: wild-type fitted maximum
Reading: higher = stronger binding
Starting sequence: PYL1, truncated, DHFR fusion (Arabidopsis thaliana); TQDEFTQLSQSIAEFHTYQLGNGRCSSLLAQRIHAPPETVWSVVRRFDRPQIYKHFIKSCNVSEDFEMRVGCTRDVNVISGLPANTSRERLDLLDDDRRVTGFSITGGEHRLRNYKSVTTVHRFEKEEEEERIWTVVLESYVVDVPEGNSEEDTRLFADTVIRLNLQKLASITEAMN; partner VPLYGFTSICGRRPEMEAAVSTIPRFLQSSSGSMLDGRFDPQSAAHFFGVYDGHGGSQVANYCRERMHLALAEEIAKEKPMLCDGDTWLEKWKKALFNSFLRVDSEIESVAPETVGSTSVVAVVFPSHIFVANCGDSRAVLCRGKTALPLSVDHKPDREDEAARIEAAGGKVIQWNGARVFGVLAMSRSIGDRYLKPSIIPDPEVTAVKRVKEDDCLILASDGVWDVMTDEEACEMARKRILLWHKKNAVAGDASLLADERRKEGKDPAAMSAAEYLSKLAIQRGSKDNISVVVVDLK
| Substitution | relative binding score |
| --- | --- |
| D3P | 80.2% |
| L8V | 53.6% |
| E109H | 64.7% |
| A158T | 92% |
| V145E | -25.7% |
| F124K | 43.9% |
| R74G | -1.11% |
| A170T | 49.7% |

Further values, each from its own experiment
| Substance | target | assay | system | conditions | scale | quantity | result |
| --- | --- | --- | --- | --- | --- | --- | --- |
| PhoQ, residues 284 288 289 292 302 303 SVHLDV | PhoP, residues 12 14 15 18 19 STHWV (Escherichia coli, UniProt P23836) | Sort-seq, measured: YFP reporter | E. coli | PhoQ-PhoP variant library, with: 10 µM Mg2+ | relative to: high Mg2+ state, higher = stronger signaling | fold induction | 0.786 |

Repeated from above (further values, each from its own experiment):
| Substance | target | assay | system | conditions | scale | quantity | result |
| --- | --- | --- | --- | --- | --- | --- | --- |
| PhoQ, residues 284 288 289 292 302 303 SVHLDV | PhoP, residues 12 14 15 18 19 STHWV (Escherichia coli, UniProt P23836) | Sort-seq, measured: YFP reporter | E. coli | PhoQ-PhoP variant library, with: 10 µM Mg2+ | relative to: high Mg2+ state, higher = stronger signaling | fold induction | 0.786 |
